Experimental data collected from several papers.
± marks the error that the study gave.
B1: antibody (Homo sapiens); chain 1 QVQLVQSGSELKKPGASVKVSCKASGYTFTSYAMNWVRQAPGQGLEWMGWINTNTGNPTYAQGFTGRFVFSLDTSVSTAYLQISSLKAEDTAVYYCARGQPPVGWTFDYWGQGTLVTV; chain 2 QSALTQPPSASGSPGQSVTISCTGTSSDVGGYNYVSWYQQHPGKAPKLMIYEVSKRPSGVPDRFSGSKSGNTASLTVSGLQAEDEADYYCSSYAGSNNLVFGGTKLTVL
B2: protein R10A (Xanthomonas citri, UniProt A0AAI8ETV0); chain MIQDTRRAPARQPTDLLPVIDTLSEVQIGRVGNVSETGMLLLASVPLHDDALYQLRFSLPERVGRATEIDVGVHLLWSEAAHAPGQAWAGFRFLTMSEPHRQRLRAWIAEEHLAG
Sequence of UniProt P56696 (whole entry, looked up): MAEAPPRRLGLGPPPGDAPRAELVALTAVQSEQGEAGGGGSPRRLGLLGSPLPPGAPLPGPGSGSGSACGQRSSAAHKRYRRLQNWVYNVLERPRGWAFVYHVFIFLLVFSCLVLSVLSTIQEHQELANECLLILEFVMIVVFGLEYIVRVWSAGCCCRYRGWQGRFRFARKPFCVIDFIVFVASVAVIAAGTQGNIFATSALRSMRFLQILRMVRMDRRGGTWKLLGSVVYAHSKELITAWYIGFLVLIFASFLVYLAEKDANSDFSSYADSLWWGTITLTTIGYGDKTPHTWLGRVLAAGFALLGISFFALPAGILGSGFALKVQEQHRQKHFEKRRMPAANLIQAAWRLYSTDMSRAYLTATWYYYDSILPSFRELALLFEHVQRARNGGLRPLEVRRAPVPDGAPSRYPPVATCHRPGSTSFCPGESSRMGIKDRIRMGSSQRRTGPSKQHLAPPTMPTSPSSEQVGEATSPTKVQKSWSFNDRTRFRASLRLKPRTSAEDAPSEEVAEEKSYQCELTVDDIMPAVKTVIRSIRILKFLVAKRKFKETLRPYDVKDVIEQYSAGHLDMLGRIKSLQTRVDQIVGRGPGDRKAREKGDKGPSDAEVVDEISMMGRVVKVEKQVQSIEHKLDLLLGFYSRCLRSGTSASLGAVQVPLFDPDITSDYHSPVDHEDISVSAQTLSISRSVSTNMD
Sequence of UniProt Q62897 (whole entry, looked up): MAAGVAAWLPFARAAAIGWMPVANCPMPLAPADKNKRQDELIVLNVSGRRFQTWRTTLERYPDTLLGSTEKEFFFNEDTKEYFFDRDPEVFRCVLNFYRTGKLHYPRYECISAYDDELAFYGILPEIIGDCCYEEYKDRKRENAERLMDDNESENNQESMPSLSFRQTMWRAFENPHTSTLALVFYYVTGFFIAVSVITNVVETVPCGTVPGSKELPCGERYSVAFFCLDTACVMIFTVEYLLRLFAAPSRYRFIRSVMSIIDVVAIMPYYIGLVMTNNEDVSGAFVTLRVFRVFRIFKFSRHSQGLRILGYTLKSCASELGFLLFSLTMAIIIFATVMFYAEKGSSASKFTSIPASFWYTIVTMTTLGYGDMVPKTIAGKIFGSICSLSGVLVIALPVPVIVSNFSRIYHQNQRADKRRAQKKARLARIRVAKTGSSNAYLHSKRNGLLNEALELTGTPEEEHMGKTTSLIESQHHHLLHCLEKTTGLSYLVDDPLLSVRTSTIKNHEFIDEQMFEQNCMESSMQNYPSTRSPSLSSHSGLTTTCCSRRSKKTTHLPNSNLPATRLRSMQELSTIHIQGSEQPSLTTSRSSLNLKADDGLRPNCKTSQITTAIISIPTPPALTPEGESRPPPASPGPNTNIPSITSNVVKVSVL
Sequence of UniProt Q96AX9 (whole entry, looked up): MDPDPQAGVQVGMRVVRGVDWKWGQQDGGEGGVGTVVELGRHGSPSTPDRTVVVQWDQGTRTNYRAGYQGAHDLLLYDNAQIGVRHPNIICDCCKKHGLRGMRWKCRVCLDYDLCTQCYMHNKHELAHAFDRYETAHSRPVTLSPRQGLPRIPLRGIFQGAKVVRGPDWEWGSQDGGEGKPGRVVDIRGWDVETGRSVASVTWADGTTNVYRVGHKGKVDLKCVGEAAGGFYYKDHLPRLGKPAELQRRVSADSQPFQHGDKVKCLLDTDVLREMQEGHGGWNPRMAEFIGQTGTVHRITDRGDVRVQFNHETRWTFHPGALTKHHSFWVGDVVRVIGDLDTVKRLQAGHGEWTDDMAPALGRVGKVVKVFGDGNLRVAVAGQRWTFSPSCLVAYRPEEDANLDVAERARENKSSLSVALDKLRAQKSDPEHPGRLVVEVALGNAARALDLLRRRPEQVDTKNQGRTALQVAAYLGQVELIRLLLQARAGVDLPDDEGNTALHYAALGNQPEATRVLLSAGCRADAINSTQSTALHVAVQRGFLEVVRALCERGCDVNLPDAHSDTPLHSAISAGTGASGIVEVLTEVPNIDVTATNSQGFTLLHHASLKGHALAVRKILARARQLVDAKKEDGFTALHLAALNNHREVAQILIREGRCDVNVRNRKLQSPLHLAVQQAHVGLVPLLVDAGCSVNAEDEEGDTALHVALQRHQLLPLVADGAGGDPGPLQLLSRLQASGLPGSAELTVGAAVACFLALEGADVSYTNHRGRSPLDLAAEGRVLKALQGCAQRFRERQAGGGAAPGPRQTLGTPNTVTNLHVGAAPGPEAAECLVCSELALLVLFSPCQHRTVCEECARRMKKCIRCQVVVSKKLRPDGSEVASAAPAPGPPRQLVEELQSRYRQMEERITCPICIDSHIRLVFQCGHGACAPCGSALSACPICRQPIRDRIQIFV

For `Rv1747 fragment (Mycobacterium tuberculosis)`, the Kd was 400 nM (pknF autophosphorylated 1-299, phosphorylated, sites unknown (Mycobacterium tuberculosis, UniProt P9WI75); ITC; 20 °C).
For `MnTx-1 mature (Pterinochilus murinus, UniProt C0HMD2)`, the IC50 was 1.1 nM (KCNA1 (Homo sapiens, UniProt Q09470); K+ current inhibition, inhibitor, patch-clamp; whole-cell).
With `B1 (antibody)` the Kd was 3.2 nM (SARS-CoV-2 spike peptide fragment (SARS-CoV-2); BLI; antibody).
For `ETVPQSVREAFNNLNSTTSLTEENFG (VP35 residues 190-215 (Zaire ebolavirus); FITC label)`, the Kd was 5400 ± 900 nM (MIB2 1-836 (Homo sapiens, UniProt Q96AX9); FP; peptide).
`BKRF4 fragment D81A/W84A/P86A/Y94A (Epstein-Barr virus)` — result for “unwrapping force of outer wrap”: 8 pN (H2A/H2B dimer (Homo sapiens); magnetic tweezers).
For `JZTX-V (UniProt Q2PAY4)`, the τoff was 58.8 s (Kcnd3 (Rattus norvegicus, UniProt Q62897); washout recovery, whole-cell patch clamp; exponential fit).
`EVIKKDTPYKKRKFPYKSECLKACATSFTGGDESRIQEGKPGFFKCTCYFTTG (protein mature, disulfides Cys20-Cys46, Cys24-Cys48 (Scolopendra subspinipes mutilans, UniProt A0A2L0ART2); disulfides Cys20-Cys46, Cys24-Cys48)` — result for “onset time constant”: 0.086 s (KCNQ4 (Homo sapiens, UniProt P56696); channel inhibition, inhibitor; peptide; 10 µM).
With `ORF45 fragment (Kaposi's sarcoma-associated herpesvirus)` the rupture force was 10 pN (H2A/H2B dimer (Homo sapiens); magnetic tweezers; outer wrap).
`B2 (protein R10A)` gave a Kd of 190000 ± 148000 nM (hemK (Xanthomonas citri, UniProt A0AAI7ZDL3); ITC).
`NLYDKLVSSFLEMKS` gave a responding donors of 8% (human CD4 T cells; AIM; peptide).
The donor lifetime of `Gag-CFP/YFP, N-terminal myristoyl (HIV-1)` is reported as 2340 ± 90 ps (itself; FLIM FRET; HEK293T; apparent, membrane pixels, in cells; lower = more FRET).
`ACE2/pIgR VHH6 Fc fusion ACE2 , Fc at C-terminus (Homo sapiens)` gave a Kd of 26.2 nM (spike RBD RBD (SARS-CoV-2, UniProt P0DTC2); BLI).
With `RVAGDSGFAAYSRYR` the responding donors was 15% (human CD4 T cells; AIM; peptide).
With `PSIP1 D366N (Homo sapiens)` the integration stimulation was 12% (HIV-1 integrase mature (HIV-1); HIV-1 integration into naked DNA, activator; relative to: wild-type LEDGF/p75, higher = stronger stimulation).

Repeated from above:
The donor lifetime of `Gag-CFP/YFP, N-terminal myristoyl (HIV-1)` is reported as 2340 ± 90 ps (itself; FLIM FRET; HEK293T; apparent, membrane pixels, in cells; lower = more FRET).
